Published values from different studies.
A part holds a random share of what one study measured. Values joined by “and” are separate records of one study, mostly repeats; a detail may differ.
UniProt Q13554, sequence (whole entry, looked up): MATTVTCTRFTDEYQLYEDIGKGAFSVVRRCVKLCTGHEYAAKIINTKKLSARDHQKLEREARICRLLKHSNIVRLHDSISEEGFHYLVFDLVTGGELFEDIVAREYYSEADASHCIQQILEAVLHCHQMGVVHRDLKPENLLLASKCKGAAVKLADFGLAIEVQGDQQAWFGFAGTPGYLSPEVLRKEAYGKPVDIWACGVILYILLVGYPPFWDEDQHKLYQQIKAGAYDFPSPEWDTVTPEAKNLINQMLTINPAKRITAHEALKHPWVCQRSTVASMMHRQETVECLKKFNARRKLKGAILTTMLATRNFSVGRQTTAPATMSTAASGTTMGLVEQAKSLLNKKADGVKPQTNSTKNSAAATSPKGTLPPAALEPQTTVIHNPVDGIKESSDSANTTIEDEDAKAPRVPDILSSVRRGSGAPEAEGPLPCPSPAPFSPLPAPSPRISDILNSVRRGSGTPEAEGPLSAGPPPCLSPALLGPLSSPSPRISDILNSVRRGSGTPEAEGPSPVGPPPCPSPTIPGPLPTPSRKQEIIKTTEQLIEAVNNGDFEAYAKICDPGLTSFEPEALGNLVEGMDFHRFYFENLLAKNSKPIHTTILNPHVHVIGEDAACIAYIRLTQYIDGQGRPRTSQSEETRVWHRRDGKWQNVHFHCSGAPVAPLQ
UniProt P31751, sequence (whole entry, looked up): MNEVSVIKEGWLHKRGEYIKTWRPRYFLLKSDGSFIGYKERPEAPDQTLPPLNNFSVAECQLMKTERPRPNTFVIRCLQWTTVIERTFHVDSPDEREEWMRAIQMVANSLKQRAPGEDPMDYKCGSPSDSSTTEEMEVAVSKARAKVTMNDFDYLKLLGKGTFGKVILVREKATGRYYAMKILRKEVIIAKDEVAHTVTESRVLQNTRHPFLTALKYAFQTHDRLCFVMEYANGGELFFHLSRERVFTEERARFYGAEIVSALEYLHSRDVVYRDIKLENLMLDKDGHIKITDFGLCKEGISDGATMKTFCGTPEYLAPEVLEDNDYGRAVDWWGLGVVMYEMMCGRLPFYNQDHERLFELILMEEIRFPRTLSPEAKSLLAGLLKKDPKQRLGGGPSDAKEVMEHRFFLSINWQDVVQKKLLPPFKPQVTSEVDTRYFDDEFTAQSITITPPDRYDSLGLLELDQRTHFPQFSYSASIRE
UniProt P80192, sequence (whole entry, looked up): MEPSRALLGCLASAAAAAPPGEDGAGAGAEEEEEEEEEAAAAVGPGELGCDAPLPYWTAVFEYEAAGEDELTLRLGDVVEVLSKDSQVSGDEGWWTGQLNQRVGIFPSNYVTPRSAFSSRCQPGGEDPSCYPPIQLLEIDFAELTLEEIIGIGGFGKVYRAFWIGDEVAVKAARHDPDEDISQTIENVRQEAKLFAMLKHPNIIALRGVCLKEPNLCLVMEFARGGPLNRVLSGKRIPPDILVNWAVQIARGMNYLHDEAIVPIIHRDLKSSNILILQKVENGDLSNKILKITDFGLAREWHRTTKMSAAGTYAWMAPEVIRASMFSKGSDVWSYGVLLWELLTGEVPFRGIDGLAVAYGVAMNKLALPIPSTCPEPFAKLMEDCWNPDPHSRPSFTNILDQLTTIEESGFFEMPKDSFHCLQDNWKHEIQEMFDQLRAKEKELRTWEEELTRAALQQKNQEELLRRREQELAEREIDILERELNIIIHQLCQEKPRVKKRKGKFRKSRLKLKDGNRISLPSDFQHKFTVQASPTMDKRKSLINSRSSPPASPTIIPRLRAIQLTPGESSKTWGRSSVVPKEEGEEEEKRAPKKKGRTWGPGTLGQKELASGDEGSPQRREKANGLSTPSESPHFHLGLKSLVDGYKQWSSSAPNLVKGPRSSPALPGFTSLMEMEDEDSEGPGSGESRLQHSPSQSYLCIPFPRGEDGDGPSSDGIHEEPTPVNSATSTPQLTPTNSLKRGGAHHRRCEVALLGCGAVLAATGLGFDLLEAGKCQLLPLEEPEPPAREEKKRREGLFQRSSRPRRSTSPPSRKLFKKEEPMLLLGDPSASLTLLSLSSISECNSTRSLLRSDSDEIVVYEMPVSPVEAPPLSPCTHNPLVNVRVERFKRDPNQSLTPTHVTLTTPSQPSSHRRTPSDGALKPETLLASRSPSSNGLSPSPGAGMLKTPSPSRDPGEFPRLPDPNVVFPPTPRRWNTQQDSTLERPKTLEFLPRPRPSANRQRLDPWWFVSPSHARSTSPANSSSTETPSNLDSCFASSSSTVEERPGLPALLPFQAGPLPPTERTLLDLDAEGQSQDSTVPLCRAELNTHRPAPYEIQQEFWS

Sample 1 — read-out: cell-free assay; technique: competition with immobilised ligand; tested at: 1 µM
SMILES: COc1ccc2c(c1)O[C@@H](c1ccc(OC)c(OC)c1)C[C@H]2NC(=O)C1(c2ccc3c(c2)OC(F)(F)O3)CC1
target	remaining binding [%]
Fibroblast growth factor receptor 1 (FGFR1, Homo sapiens, UniProt P11362)	90
Calcium/calmodulin-dependent protein kinase type II subunit beta (CAMK2B, Homo sapiens, UniProt Q13554)	69
Ribosomal protein S6 kinase alpha-3, N-terminal kinase domain (RPS6KA3, Homo sapiens, UniProt P51812)	81
Cyclin-dependent kinase 7 (CDK7, Homo sapiens, UniProt P50613)	80
Serine/threonine-protein kinase ULK3 (ULK3, Homo sapiens, UniProt Q6PHR2)	85
Serine/threonine-protein kinase PLK4 (PLK4, Homo sapiens, UniProt O00444)	84
Receptor-type tyrosine-protein kinase FLT3 (FLT3, Homo sapiens, UniProt P36888, D835V)	99
Mast/stem cell growth factor receptor Kit (KIT, Homo sapiens, UniProt P10721, V559D/V654A)	100
Mitogen-activated protein kinase kinase kinase 9 (MAP3K9, Homo sapiens, UniProt P80192)	100
Epidermal growth factor receptor (EGFR, Homo sapiens, UniProt P00533, T790M)	82
Cyclin-dependent kinase 18 (CDK18, Homo sapiens, UniProt Q07002)	100
Cyclin-dependent kinase-like 2 (CDKL2, Homo sapiens, UniProt Q92772)	100
Epidermal growth factor receptor (EGFR, Homo sapiens, UniProt P00533, del746-750)	68
Non-receptor tyrosine-protein kinase TYK2, JH1 (TYK2, Homo sapiens, UniProt P29597)	65
Ephrin type-A receptor 8 (EPHA8, Homo sapiens, UniProt P29322)	82
Discoidin domain-containing receptor 2 (DDR2, Homo sapiens, UniProt Q16832)	98

Sample 2 — SMILES: CCN(CC)CCCCN1c2ccccc2Oc2ccc(Cl)cc21; read-out: enzyme activity; action: inhibitor; technique: radiometric
target	IC50 [µM]
RAC-beta serine/threonine-protein kinase (AKT2, Homo sapiens, UniProt P31751)	> 30
Serine/threonine-protein kinase pim-3 (PIM3, Homo sapiens, UniProt Q86V86)	0.514
RAC-gamma serine/threonine-protein kinase (AKT3, Homo sapiens, UniProt Q9Y243)	> 30

Sample 3 — read-out: enzyme activity; action: inhibitor; tested at: 77 µM; reference: untreated
Target: DNA polymerase theta, ATPase domain (POLQ, Homo sapiens, UniProt O75417)
UniProt O75417, sequence (whole entry, unmodified, looked up): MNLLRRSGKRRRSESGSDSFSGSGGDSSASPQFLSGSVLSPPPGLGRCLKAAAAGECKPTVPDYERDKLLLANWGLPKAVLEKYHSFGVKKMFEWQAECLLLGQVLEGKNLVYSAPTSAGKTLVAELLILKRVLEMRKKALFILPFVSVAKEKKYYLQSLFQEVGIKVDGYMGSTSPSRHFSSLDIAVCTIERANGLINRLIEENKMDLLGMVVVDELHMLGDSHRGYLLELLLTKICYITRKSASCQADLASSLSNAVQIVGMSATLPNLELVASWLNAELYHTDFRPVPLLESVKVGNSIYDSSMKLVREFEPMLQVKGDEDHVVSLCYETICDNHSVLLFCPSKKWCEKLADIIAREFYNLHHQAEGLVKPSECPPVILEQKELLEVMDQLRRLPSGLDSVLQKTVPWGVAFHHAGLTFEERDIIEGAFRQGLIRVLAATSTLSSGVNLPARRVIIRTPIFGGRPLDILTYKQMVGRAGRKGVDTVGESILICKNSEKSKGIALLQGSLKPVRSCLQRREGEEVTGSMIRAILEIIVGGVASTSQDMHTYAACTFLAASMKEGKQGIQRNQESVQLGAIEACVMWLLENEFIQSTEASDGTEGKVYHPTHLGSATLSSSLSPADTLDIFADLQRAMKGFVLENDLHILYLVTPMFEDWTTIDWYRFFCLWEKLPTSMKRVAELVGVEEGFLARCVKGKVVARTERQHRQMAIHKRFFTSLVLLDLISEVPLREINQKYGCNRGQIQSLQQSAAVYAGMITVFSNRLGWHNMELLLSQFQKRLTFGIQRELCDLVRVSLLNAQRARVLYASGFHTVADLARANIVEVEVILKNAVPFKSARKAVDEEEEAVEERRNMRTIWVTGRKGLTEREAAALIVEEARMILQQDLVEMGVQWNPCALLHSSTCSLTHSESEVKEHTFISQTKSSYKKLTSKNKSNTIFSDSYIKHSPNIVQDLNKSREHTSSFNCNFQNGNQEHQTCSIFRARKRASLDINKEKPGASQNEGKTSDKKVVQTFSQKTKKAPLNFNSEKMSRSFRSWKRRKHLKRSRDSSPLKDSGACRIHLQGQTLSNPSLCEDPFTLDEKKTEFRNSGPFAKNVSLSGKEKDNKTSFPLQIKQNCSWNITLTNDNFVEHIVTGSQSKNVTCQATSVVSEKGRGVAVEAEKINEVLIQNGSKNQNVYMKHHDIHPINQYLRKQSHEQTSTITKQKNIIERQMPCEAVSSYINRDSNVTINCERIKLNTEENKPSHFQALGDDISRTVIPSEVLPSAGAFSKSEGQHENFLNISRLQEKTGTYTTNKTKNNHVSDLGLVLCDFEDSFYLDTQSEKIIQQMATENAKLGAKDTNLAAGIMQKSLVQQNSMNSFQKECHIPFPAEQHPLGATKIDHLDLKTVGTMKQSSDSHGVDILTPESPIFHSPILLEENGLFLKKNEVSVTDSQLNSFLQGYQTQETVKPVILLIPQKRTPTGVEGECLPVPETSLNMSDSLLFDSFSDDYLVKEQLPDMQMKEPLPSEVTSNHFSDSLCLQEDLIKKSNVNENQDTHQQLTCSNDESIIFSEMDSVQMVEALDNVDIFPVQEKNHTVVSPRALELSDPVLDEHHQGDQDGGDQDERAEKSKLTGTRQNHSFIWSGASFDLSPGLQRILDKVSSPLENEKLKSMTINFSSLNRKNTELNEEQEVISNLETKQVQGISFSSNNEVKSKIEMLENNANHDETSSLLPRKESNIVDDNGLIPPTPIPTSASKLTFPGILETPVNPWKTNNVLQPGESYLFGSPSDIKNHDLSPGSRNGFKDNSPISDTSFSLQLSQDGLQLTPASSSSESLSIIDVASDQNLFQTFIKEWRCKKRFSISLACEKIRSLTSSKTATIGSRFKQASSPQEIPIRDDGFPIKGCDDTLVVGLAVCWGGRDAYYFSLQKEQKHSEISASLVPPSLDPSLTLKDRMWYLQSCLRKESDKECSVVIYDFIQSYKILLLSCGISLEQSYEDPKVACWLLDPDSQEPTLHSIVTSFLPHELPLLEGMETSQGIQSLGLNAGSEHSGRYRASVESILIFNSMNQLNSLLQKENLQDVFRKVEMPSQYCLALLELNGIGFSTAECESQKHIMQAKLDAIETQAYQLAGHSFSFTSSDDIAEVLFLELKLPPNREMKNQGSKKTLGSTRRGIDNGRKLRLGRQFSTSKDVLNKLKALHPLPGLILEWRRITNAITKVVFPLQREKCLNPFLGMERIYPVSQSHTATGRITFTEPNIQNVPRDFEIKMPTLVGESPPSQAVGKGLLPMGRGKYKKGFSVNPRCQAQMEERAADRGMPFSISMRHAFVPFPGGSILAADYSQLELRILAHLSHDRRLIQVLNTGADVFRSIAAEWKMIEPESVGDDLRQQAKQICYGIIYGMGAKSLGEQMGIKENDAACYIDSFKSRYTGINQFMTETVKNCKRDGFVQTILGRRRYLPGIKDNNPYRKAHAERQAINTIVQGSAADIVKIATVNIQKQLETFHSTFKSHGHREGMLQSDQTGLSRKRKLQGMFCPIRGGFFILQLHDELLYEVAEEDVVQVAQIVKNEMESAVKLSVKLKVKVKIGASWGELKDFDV
Compound	remaining activity
COc1ccc(C[C@@H]2c3cc(OC)c(OC)cc3CC[N@+]2(C)CCC(=O)OCCCCCOC(=O)CC[N@@+]2(C)CCc3cc(OC)c(OC)cc3[C@H]2Cc2ccc(OC)c(OC)c2)cc1OC	95.5% and 106%
c1ccc(-c2ccc(C(c3ccccc3)n3ccnc3)cc2)cc1 (centres unmarked)	91%
N[C@@H](CCC(=O)N[C@@H](CSN=O)C(=O)NCC(=O)O)C(=O)O	108%
COc1ccc(C(=O)c2ccccc2O)c(O)c1	109%
CC(C)/N=c1\cc2n(-c3ccc(Cl)cc3)c3ccccc3nc-2cc1Nc1ccc(Cl)cc1	102% and 77%
c1ccc2c(c1)CCC[C@H]2Nc1nc2ccccc2[nH]1	101%
C#C[C@]1(O)CC[C@H]2[C@@H]3CCC4=CC(=O)CC[C@@H]4[C@H]3CC[C@@]21C	99.6% and 109%
CCCC(=O)NCCc1c2n(c3ccc(OC)cc13)CCCc1ccccc1-2	103%

Sample 4 — cell line: mouse MPNST tumor cells; technique: high-content nuclear imaging; item: cell number; tested at: 10 µM; time: 12 h; notes: mean of 2 replicates; reference: plate mean; reading: higher = more cells
SMILES	nuclei count [z-score]
COC(=O)Nc1nc2cc(C(=O)c3ccc(F)cc3)ccc2[nH]1	-4.25
CC(C)(C)c1ccc2cc(C#N)c(C#N)cc2c1	-2.05
CNC(=O)c1ccccc1Sc1ccc2c(/C=C/c3ccccn3)n[nH]c2c1	-2.49
O=[N+]([O-])c1ccc2nc(COCc3nc4ccc([N+](=O)[O-])cc4[nH]3)[nH]c2c1	3.6
COC(=O)[C@H]1[C@H]2C[C@@H]3c4[nH]c5cc(OC)ccc5c4CCN3C[C@H]2C[C@@H](OC(=O)c2cc(OC)c(OC)c(OC)c2)[C@@H]1OC	1.28
CCC(=O)OCC(=O)[C@@]1(OC(=O)CC)[C@H](C)C[C@H]2[C@H]3[C@H]([C@@H](O)C[C@@]21C)[C@@]1(C)C=CC(=O)C=C1C[C@H]3Cl	3.68
CN1CCN(C(=O)c2ccc(-n3nc(-c4ccc(C(=O)O)cc4)cc3-c3cc(C(C)(C)C)cc(C(C)(C)C)c3)cc2)CC1	5.35
O=C1C(Cl)=C(NCCN2CCOCC2)C(=O)c2ncccc21	-5.12

Repeated from above (sample 2):
target	IC50 [µM]
Serine/threonine-protein kinase pim-3 (PIM3, Homo sapiens, UniProt Q86V86)	0.514
RAC-gamma serine/threonine-protein kinase (AKT3, Homo sapiens, UniProt Q9Y243)	> 30
